Results from different studies.
Cell line: SK-MEL-5

With `CC(C)c1ccc(N(C)c2ccc3c(c2)OCC[C@H]3CNc2cnccc2C(=O)O)cc1` the IC50 was 16.8 nM (cell viability, CellTiter-Glo; 7 days).
With `CN(C)CCN1CCN(c2ccc3nc(-c4ccc5nc(-c6ccc(C(F)(F)F)cc6)[nH]c5c4)[nH]c3c2)CC1` the growth percent was 23.6% (SRB; 10 µM, 48 h).
With `CCCC(CCC)C(=O)OCc1cn(-c2cc3ccccc3oc2=O)nn1` the growth percentage was 92.8% (NCI60 single-dose screen; 10 µM).
With `O=C(Nc1nnc2c1c(-c1ccc(Cl)cc1)nc1sc(=Cc3ccco3)c(=O)n12)c1ccccc1` (mixture of isomers) the cell growth was 45.8% (SRB; 10 µM, NCI60 single-dose screen; reference: untreated).
`CCN(C(=O)c1cc(F)ccc1Oc1nncnc1N1CCC2(C1)CN([C@H](CCCN(C)CCOC)C(C)C)C2)C(C)C` gave a GI50 of greater than 10000 nM (cell growth or viability; 7 days).
The TGI of `C1=[N+]2CCCC[N+]3=Cc4ccc5[n]4[Au-]23[n]2c1ccc2-c1nc2ccccc2nc1-5.F[P-](F)(F)(F)(F)F` is reported as 4.44 -log M (NCI60 five-dose screen).
`CNS(=O)(=O)Nc1nccc(Cc2c(C)c3ccc(Oc4ncccc4F)cc3oc2=O)c1F` gave an IC50 of greater than 1000 nM (cell viability; 7 days).
For `Cn1ncc(-c2ccc3c(=O)[nH]nc(CN)c3c2)c1-c1c(F)c(Cl)cc(OC2CC2)c1C#N`, the IC50 was 40 nM (cell viability, inhibitor, CellTiter-Glo; 120 h, baseline-subtracted).
With `Cc1ccc([N+](=O)[O-])cc1S(=O)(=O)N(C)/N=C/c1cnc2ccc(Br)cn12` the IC50 was greater than 10000 nM (cell growth or viability).

Some of these lines once more:
With `CCCC(CCC)C(=O)OCc1cn(-c2cc3ccccc3oc2=O)nn1` the growth percentage was 92.8% (NCI60 single-dose screen; 10 µM).
